Measurements gathered from unrelated publications.
Compare with care: the assays were run in different laboratories.
Target: Serine/threonine-protein kinase TAO1 (TAOK1, Homo sapiens, UniProt Q7L7X3)
Sequence (Q7L7X3 1-1001, as in one of the studies): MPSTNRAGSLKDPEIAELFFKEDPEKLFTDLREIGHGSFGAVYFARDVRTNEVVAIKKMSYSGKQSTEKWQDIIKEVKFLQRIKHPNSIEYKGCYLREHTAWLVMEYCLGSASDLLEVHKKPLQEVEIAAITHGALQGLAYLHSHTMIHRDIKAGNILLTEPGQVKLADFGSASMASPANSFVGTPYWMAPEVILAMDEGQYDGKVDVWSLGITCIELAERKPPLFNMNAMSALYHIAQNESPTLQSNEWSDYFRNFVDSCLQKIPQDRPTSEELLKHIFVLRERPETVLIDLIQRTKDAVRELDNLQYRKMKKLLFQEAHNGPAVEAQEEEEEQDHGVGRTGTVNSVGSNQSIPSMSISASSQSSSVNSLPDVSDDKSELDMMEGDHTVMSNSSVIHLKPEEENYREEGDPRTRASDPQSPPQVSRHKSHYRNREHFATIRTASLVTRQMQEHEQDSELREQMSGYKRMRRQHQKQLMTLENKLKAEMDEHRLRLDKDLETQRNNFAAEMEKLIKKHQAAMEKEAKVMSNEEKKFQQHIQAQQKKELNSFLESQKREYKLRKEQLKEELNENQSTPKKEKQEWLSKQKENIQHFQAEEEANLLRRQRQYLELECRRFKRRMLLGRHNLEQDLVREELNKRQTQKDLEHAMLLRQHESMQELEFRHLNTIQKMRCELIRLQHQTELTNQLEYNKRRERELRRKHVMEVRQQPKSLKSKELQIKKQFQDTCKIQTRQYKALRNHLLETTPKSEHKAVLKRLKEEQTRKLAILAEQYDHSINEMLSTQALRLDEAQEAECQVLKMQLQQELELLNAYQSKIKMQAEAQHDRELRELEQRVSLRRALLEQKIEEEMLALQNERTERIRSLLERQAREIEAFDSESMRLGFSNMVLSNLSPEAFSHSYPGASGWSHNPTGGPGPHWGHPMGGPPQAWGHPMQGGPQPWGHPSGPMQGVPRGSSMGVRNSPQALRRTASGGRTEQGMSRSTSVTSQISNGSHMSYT

NC(=O)[C@@H](O)C[C@H]1CCc2sc3ncnc(O[C@H]4CC[C@H](N5CCOCC5)CC4)c3c21
inhibition (enzyme activity, inhibitor; 10 µM): 2%

CNC(=O)C1CCN(c2cc(C)c(F)cc2NC(=O)c2ccc(-c3cc(O)ccc3C)c(C)c2)CC1
remaining binding (binding, competition with immobilised ligand; 1 µM): 95%

COc1c(OCCCN2CCOCC2)ccc2c1N=C(NC(=O)c1cnc(N)nc1)N1CCN=C21
remaining activity (kinase activity, inhibitor; 1 µM; baseline: untreated control): 116%

Nc1ncc2c(n1)-c1c([nH]c3ccc(C4=CCOCC4)cc13)CCC2
remaining binding (binding, competition with immobilised ligand; 1 µM): 100%

Cc1cnc2nc1Nc1cccc(c1)COC/C=C/COCc1cc(ccc1OCCN1CCOCC1)N2
remaining binding (binding, competition with immobilised ligand; 0.1 µM): 90%

Nc1ncc(-c2cc(-c3cnn(CC(F)(F)F)c3)ncc2F)nc1C(=O)NC1CNCC(F)C1 (stereo not shown)
remaining activity (enzyme activity; 1 µM; baseline: DMSO control): 92.6%

CN1CC[C@@H](COc2cnc(C#N)cc2-c2ccn3nc(NC(=O)C4CC4)cc3c2)C1
inhibition (enzyme activity, inhibitor; 1 µM): 8%

COc1cc(Nc2nccc(-c3cnn4nc(OC)ccc34)n2)cc(C(F)(F)F)c1
remaining binding (binding, competition with immobilised ligand; 1 µM): 79%

C[C@]1(O)CCCN(c2nc(Nc3ccc(S(=O)(=O)N[C@H]4CC[C@H](CN5CCN(c6ccc(C7CCC(=O)NC7=O)cc6F)CC5)CC4)cc3)ncc2C(F)(F)F)C1 (stereo partly shown)
remaining binding (binding, competition with immobilised ligand; 1 µM): 30%

C=CC(=O)N1CCCC(n2c(=O)c3ncccc3n(Cc3ccc(Oc4ccccc4)cc3)c2=O)C1 (stereo not shown)
remaining binding (cell-free assay, competition with immobilised ligand; 1 µM): 95%

COc1ccc(C(=O)/C=C/c2ccccc2-c2c[nH]c3ccc(C#N)cc23)c(O)c1
inhibition (enzyme activity, inhibitor; 20 µM): -12%

CNC1C[S+]2CC[S+]3CC[S+](C1)[Ru-4]321([N]=C=S)[n]2c3ccc(OC)cc3c3c4c(c5cc(F)c[n+]1c5c32)C(=O)NC4=O (stereo not shown)
remaining binding (KinomeScan; 0.1 µM; baseline: untreated): 84%

CNC(=O)C[C@H](Cc1ccc(C#N)cc1)NC(=O)c1cc(-c2ccc(CN[C@H](C)c3ccc(C)cc3)o2)ccc1Cl
activity vs control (enzyme activity, inhibitor; 1 µM): 100%
